Assay results gathered from unrelated publications.
Lines come from different studies, so protocols differ. ± marks the error that the study gave. ≈ marks a conversion by molar mass, not a printed value.

Under locomotor activity, `CC(CN1CCC(Cc2ccccc2)CC1)C(O)c1ccc(O)cc1` (centres unmarked) is recorded as “increased” (rat; intraperitoneal, dose not given, 2 h cumulative, high doses).
Under “absorbed radiation dose”, `[11CH3]c1ccc2nc(C3CCC3)n(-c3ccc4[nH]ncc4c3)c2n1` is recorded as 13.7 µSv/MBq (human male, small intestine).
Under “patients with treatment-related adverse event”, `CC(C)c1cnc(-c2cc(Cl)ccc2F)cc1Nc1ccncc1C(=O)NC(CO)CO` is recorded as 0% (monotherapy, item: blood alkaline phosphatase increased; human patients; oral, dose not given, grade 3, phase I A).
With `C=C(c1ccc(C(=O)O)c(F)c1)c1cc2c(cc1C)C(C)(C)C=CC2(C)C` the blood cholesterol was 72 ± 11.9 mg/dL (Sprague-Dawley rat, male; oral, 100 mg/kg, 12 h, sesame oil vehicle).
For `CCCCCCCCC=CCCCCCCCC(=O)OC(COC(=O)Cc1c(C)n(C(=O)c2ccc(Cl)cc2)c2ccc(OC)cc12)COP(=O)([O-])OCC[N+](C)(C)C` (centres unmarked), hydrolytic stability read “stable” (buffer; 24 h, pH 7.2, 37 °C).
For `O=C(CCCCC[N+]#[C][99Tc-5]([C]#[N+]CCCCCC(=O)N[C@H]1C(O)O[C@H](CO)[C@@H](O)[C@@H]1O)([C]#[N+]CCCCCC(=O)N[C@H]1C(O)O[C@H](CO)[C@@H](O)[C@@H]1O)([C]#[N+]CCCCCC(=O)N[C@H]1C(O)O[C@H](CO)[C@@H](O)[C@@H]1O)([C]#[N+]CCCCCC(=O)N[C@H]1C(O)O[C@H](CO)[C@@H](O)[C@@H]1O)[C]#[N+]CCCCCC(=O)N[C@H]1C(O)O[C@H](CO)[C@@H](O)[C@@H]1O)N[C@H]1C(O)O[C@H](CO)[C@@H](O)[C@@H]1O` (some centres unmarked), “central volume of distribution” read 0.007 L/kg (two-compartment model; CD-1 mouse, blood; dose not given).
For `CN(C)c1ccc(-c2nc3ccc(OCCCCCN4CCN5CCN(CC4)CC(=O)[O][Al]([18F])[O]C(=O)C5)cc3s2)cc1`, the intestine uptake was 37.6 ± 6.8 % injected dose/organ (ICR mouse; intravenous, dose not given, 60 min).
`CCCC[C@H](NC(=O)CNC(=O)CNC(=O)CN1CCN(CC(=O)O)CCN(CC(=O)O)CC1)C(=O)N[C@H]1CC(=O)NCCCC[C@@H](C(N)=O)NC(=O)[C@H](Cc2c[nH]c3ccccc23)NC(=O)[C@H](CCCNC(=N)N)NC(=O)[C@@H](Cc2ccccc2)NC(=O)[C@H](Cc2c[nH]cn2)NC1=O` [gallium-67 labelled] — result for “tumour to skin uptake ratio”: 5.15 (C57 mice, B16/F1 melanoma; 0.5 h).
`CN(C)c1ccc2c(-c3cc(C(=O)N4CCN(CCCOc5ccc6nccc(C(=O)NCC(=O)N7CC(F)(F)C[C@H]7C#N)c6c5)CC4)ccc3C(=O)[O-])c3ccc(=[N+](C)C)cc-3oc2c1`: “fibroblast accumulation onset time” 30 min (intravital imaging; mouse B16-F10-GFP tumour, tumour fibroblasts; intravenous, 1 µM, 100 µL).
`Cc1ccc(OCC(=O)N(Cc2cccs2)c2ccn[nH]2)cc1` has a dose-normalised AUC(0-last) of 0.971 ng·h/mL/mg/kg (Sprague-Dawley rat, female, plasma; oral gavage, 30 mg/kg).
The cabazitaxel release of `CCCCCCCCCCCCCCCC(=O)OCC(COC(=O)CCCCCCCCCCCCCCC)OC(=O)CCCSSCCCC(=O)OC(C(=O)OC1CC2(O)C(OC(=O)c3ccccc3)C3C4(OC(C)=O)COC4CC(OC)C3(C)C(=O)C(OC)C(=C1C)C2(C)C)C(NC(=O)OC(C)(C)C)c1ccccc1` (centres unmarked) is reported as 55% (prodrug; PBS with 30% ethanol; 48 h, pH 7.4, 37 °C, together with: DTT 10 mM).
`C#CCOc1ccc(/C=C2\SC(=O)N(CC(=O)NCc3ccccc3)C2=O)cc1` — result for “Kirkwood-Buff integral G2,3”: -381 cm³/mol (inverse Kirkwood-Buff integrals; binary solvent mixture; 298.15 K, mole fraction x1 0.35).
For `Cn1cc(C(N)=O)c(NC2C3CC4CC2CC(O)(C4)C3)c2ccnc1-2` (centres unmarked), the AUC(0-t) was 402 ng·h/mL (Japanese adults, normal hepatic function, plasma; oral, 150 mg single dose).
Under “radiative decay rate constant”, `Cc1ccc(-c2ccc(-c3cc4sccc4o3)cn2)nc1` is recorded as 0.36 ns⁻¹ (TCSPC; MeOH).
`COc1cc(NC(C)=O)c2c(c1O)-c1c(OC)c(OC)cc3c1C(C2)N(C)CC3` (centres unmarked) gave a remaining compound of 92.4 ± 1.4% (rat lung homogenate; 5 µg/mL, 4 h, room temperature, short-term storage).
The recovery of `O=C(Nc1nccs1)C(c1cc(F)ccc1O)N1Cc2ccccc2C1=O` (centres unmarked) is reported as 100 ± 1.1% (mouse plasma; 1500 ng/mL, time not given, -30 °C, 3 freeze-thaw cycles, high QC).
`O=C([O-])CN1CCN(CC(=O)[O-])CCN(CC(=O)NC[C@H]2CC[C@H](C(=O)N[C@H](Cc3cnc4ccccc4c3)C(=O)NCCCC[C@H](NC(=O)N[C@@H](CCC(=O)O)C(=O)O)C(=O)O)CC2)CCN(CC(=O)[O-])CC1.[64Cu+2]` gave an absorbed dose of 0.148 mGy/MBq (PET/CT dosimetry; healthy human volunteers, urinary bladder wall).
`Cn1c(=O)oc2ccc(-c3ccc(CC(C#N)NC(=O)C4CNCCCO4)c(F)c3)cc21` (centres unmarked): “monocyte count increased incidence” 0% (human; oral, 20 mg once daily, TEAE, multiple ascending dose).
With `Cc1nc(C)c(C=[N+]([O-])C(C)(C)C)nc1C` the Cavg was 1980 ng/mL (healthy human, both sexes, serum; oral, 600 mg twice daily, 7 days).
With `O=C(Nc1ccc(-c2noc(C3CC3)n2)c(Cl)c1)c1cccs1` the thermodynamic solubility was 130 ± 19.1 µg/mL (≈ 376 µM) (sodium acetate buffer; 24 h, pH 4.0, room temperature).
For `O=C([O-])CN(CCN(CC(=O)[O-])Cc1cc(CCC(=O)NCCCCCC(=O)NCCCC[C@H](NC(=O)N[C@@H](CCC(=O)O)C(=O)O)C(=O)O)ccc1O)Cc1cc(CCC(=O)O)ccc1[O-].[68Ga+3]`, the SUVmean was 4.1 ± 1.6 (PET/CT; prostate cancer patients, liver; 60 min post-injection).
Under “metabolite formation rate”, `NS(=O)(=O)c1ccc(N2N=C(C(F)(F)F)C(O)C2c2ccc(F)cc2F)cc1` (centres unmarked) is recorded as 23.7 pmol/min/mg (substrate; male beagle dog liver microsomes; 20 µM, pH 7.4, mean of 0-90 and 0-60 min).
Under “main excretion period”, `N=C(N)NCCC[C@@H]1NC(=O)[C@H](Cc2c[nH]c3ccccc23)NC(=O)[C@@H](CC2CCCCC2)NC(=O)[C@@H]2CCCN2C(=O)[C@@H](NC(=O)CCc2ccccc2)CCCNC1=O` is recorded as no more than 6 h (C57BL/6J mice, urine; 1 mg/kg).
With `CC[C@H](C)[C@@H]1NC(=O)[C@H](CCCCN)NC(=O)[C@H](CCCCN)NC(=O)[C@H](Cc2ccc(O)cc2)NC(=O)[C@H](CC(C)C)NC(=O)[C@@H]2CCCN2C(=O)CNC(=O)CNC(=O)[C@@H](NC(=O)CN)CSSC[C@@H](C(=O)N[C@@H](CCC(=O)O)C(=O)N[C@@H](CO)C(N)=O)NC(=O)[C@H](CC(C)C)NC(=O)[C@H](CCCCN)NC(=O)[C@H](CCCCN)NC(=O)[C@H]([C@@H](C)CC)NC(=O)[C@H]([C@@H](C)CC)NC(=O)[C@H](CCCCN)NC(=O)[C@H](CCCCN)NC(=O)[C@H](Cc2ccc(O)cc2)NC(=O)[C@H](CC(C)C)NC(=O)[C@@H]2CCCN2C(=O)[C@H](C)NC(=O)CNC(=O)CNC(=O)[C@H](CO)NC(=O)CNC(=O)CNC(=O)[C@H](CO)NC(=O)[C@H](CCC(=O)O)NC(=O)[C@H](CC(C)C)NC(=O)[C@H](CC(C)C)NC(=O)[C@H](CCCCN)NC(=O)[C@H](CCCCN)NC(=O)[C@H]([C@@H](C)CC)NC1=O` the HC10 was greater than 128 µM (hemolysis; uninfected human erythrocytes; 1 h).
Under “metabolite peak area”, `Cc1ccc(C(=O)N[C@@H](CO)CC(C)C)cc1C` is recorded as 1.8% (LC-MS; human liver microsomes; 10 µM of parent drug, 60 min, pH 7.4, together with: NADPH; baseline: parent drug at time zero).
`COC(=O)/C=C/C(=O)c1ccc(OC)cc1` gave a Vd/F of 1030 L/kg (Sprague-Dawley rat, plasma; oral, 100 mg/kg).
For `O=C(Cc1ccccc1)Nc1nc2ccccc2n1Cc1ccccc1`, the fraction unbound was 36.6% (ultrafiltration; human plasma; 30 min, 37 °C).
For `CSCOC1C(=O)C2(C)C(OCSC)CC3OCC3(OC(C)=O)C2C(OC(=O)c2ccccc2)C2(O)CC(OC(=O)C(O)C(C=C(C)C)NC(=O)OC(C)(C)C)C(C)=C1C2(C)C` (centres unmarked), the Vd was 44.9 L/kg (male Sprague-Dawley rat, plasma; intravenous, 1 mg/kg).
With `Cc1ccc(/N=N/c2c(O)ccc3ccccc23)c(C)c1` the measured concentration was 0.502 µg/L (extracted rat blood QC samples; 0.5 µg/L, 8 h, room temperature, short-term stability).
`CC/C=C\C/C=C\C/C=C\C/C=C\C/C=C\CCCCOC(CC)C(=O)O` (centres unmarked): “fraction absorbed via portal vein” greater than 99% (Wistar rat, male, portal vein blood, mesenteric lymph; oral, 100 mg/kg, portal plasma flow 522 mL/h, lymph flow 0.5 mL/h).
The AUC(0-24) of `CN1CCC[C@]1(C)/C=C/S(=O)(=O)NC(=O)Nc1c2c(cc3c1CCC3)CCC2` is reported as 65500 ng·h/mL (human, plasma; oral, 50 mg twice daily, day 1, multiple ascending dose).
For `CN1CC[C@H](c2c(O)cc(O)c3c(=O)cc(/C=C/c4c(Cl)cccc4Cl)oc23)[C@H](O)C1.O=C(O)CNC(=O)c1ccccc1`, the AUC(0-t) was 17500 ± 1540 ng·h/mL (dissolution, USP paddle apparatus; water, 0.25% SLS; concentration not given, sink conditions).

Repeated from above:
With `Cc1ccc(/N=N/c2c(O)ccc3ccccc23)c(C)c1` the measured concentration was 0.502 µg/L (extracted rat blood QC samples; 0.5 µg/L, 8 h, room temperature, short-term stability).
`CC/C=C\C/C=C\C/C=C\C/C=C\C/C=C\CCCCOC(CC)C(=O)O` (centres unmarked): “fraction absorbed via portal vein” greater than 99% (Wistar rat, male, portal vein blood, mesenteric lymph; oral, 100 mg/kg, portal plasma flow 522 mL/h, lymph flow 0.5 mL/h).
The AUC(0-24) of `CN1CCC[C@]1(C)/C=C/S(=O)(=O)NC(=O)Nc1c2c(cc3c1CCC3)CCC2` is reported as 65500 ng·h/mL (human, plasma; oral, 50 mg twice daily, day 1, multiple ascending dose).
